Measurements from different studies.
Each line is one published result; not all experiments were run side by side. ± gives the spread as reported.

Molecule	target	assay	system	conditions	how to read	measurement	result
COc1c(-c2ccc(O)c(O)c2)oc2cc(O)cc(OC)c2c1=O	NAD(P)H quinone oxidoreductase, mouse	enzyme induction, inducer	Hepa-1c1c7	concentration doubling activity		CD value	> 20 µM
O=C1NC(=O)C(c2ccccc2)(c2ccccc2)N1	MCT5 (rat)	substrate, Xenopus oocytes		9.09 µM, 20 °C	relative to: water-injected oocytes	uptake	no effect
CC1CCN(CCCN(C[C@H]2O[C@@H](n3cnc4c(N)ncnc43)[C@H](O)[C@@H]2O)C2CCN(Cc3nc4cc(NC(=O)C(C)(C)C)ccc4[nH]3)CC2)CC1	human DOT1L R231Q	inhibitor, western blot, item: H3K79me2 over histone H3	H460 DOT1L R231Q	concentration not given	relative to: cpd over SGC0946	H3K79me2 level ratio	1.23
O=C(O)c1ccc(Cl)c(N2C(=O)c3ccc4c(=O)n5c6ccc([N+](=O)[O-])cc6nc5c5ccc(c3c45)C2=O)c1	TrkA	western blot	PC-12	10 µM, 15 min, together with: NGF 50 pM		NGF-induced TrkA phosphorylation	decreased
TRSSRAGLQWPVGRVHRLLRK-NH2 (C-amide)	15 bp duplex DNA	DNA binding, near-UV circular dichroism	peptide	room temperature, together with: 1.66 µM DNA, peptide titrated		CD slope at 272 nm	-0.22 ± 0.016
O=Cc1ccc(CO)o1	NAD(P)H quinone oxidoreductase, mouse	enzyme induction, inducer	Hepa-1c1c7	concentration doubling activity		CD value	18.7 ± 2.9 µM
COC(=O)C1CCN(CCCN(C[C@H]2O[C@@H](n3cnc4c(N)ncnc43)[C@H](O)[C@@H]2O)C2CCN(Cc3nc4cc(NC(=O)C(C)(C)C)ccc4[nH]3)CC2)CC1	human DOT1L R231Q	inhibitor, western blot, item: H3K79me2 over histone H3	H460 DOT1L R231Q	concentration not given	relative to: cpd over SGC0946	H3K79me2 level ratio	1.35
O=c1ccc2ccccc2o1	CYP2A6 human	7-hydroxylation, substrate	human liver microsomes	CYP2A6 added 433 pmol/mg, ratio 1		Hill coefficient	1.36 ± 0.48
Cn1c(=O)oc2ccc(-c3ccc(C[C@@H](C#N)NC(=O)[C@@H]4CNCCCO4)cc3)cc21	neutrophil elastase	enzyme activity, inhibitor	human, whole blood	oral, 10 mg once daily, together with: zymosan		steady-state inhibition	30%
O=C(/C=C/c1ccc2c(=O)n(CCCl)cnc2c1)NO	histone deacetylase	enzyme activity, inhibitor	HeLa nuclear extract			IC50	113 nM
CC[C@H]1OC(=O)[C@H](C)[C@@H](O[C@H]2C[C@@](C)(OC)[C@@H](O)[C@H](C)O2)[C@H](C)[C@@H](O[C@@H]2O[C@H](C)C[C@H](N(C)C)[C@H]2O)[C@](C)(O)C[C@@H](C)[C@@H]2N[C@@H](COCCOC)O[C@H]([C@H]2C)[C@]1(C)O	Escherichia coli 70S ribosome	binding, fluorescence anisotropy competition		25 °C, together with: BODIPY-erythromycin		Kd	1.6 ± 0.5 nM
CC(C)(C)C(=O)Nc1ccc2[nH]c(CN3CCC(N(CCC(=O)NCC4CCCO4)C[C@H]4O[C@@H](n5cnc6c(N)ncnc65)[C@H](O)[C@@H]4O)CC3)nc2c1 (some centres unmarked)	human DOT1L R231Q	inhibitor, western blot, item: H3K79me2 over histone H3	H460 DOT1L R231Q	concentration not given	relative to: cpd over SGC0946	H3K79me2 level ratio	1.3
GKKVITAFAEGLK	single-chain TCR 3.L2 mouse	surface plasmon resonance	peptide	together with: pMHC-II monomer		koff	1.12 to 4.61 s⁻¹
CC(C)N(CCC1CC2CN(C(=O)Nc3ccc(NC(=O)C(C)(C)C)cc3)CC2C1)C[C@H]1O[C@@H](n2cnc3c(N)ncnc32)[C@H](O)[C@@H]1O (some centres unmarked)	human DOT1L R231Q	inhibitor, western blot, item: H3K79me2 over histone H3	H460 DOT1L R231Q	concentration not given	relative to: cpd over SGC0946	H3K79me2 level ratio	2.19
CCn1cnc2c(N)ncnc21	rhodopsin wild type-Rluc fusion	reporter gene	HEK293	24 h		EC50	11000 nM
C=CCc1ccc(O)c(OC)c1	anti-eugenol mouse monoclonal antibody	binding, indirect competitive ELISA		100 ng/mL		inhibition	77%
O=Cc1ccc(O)cc1	UGT (rat)	4-MU glucuronidation, inhibitor	rat kidney microsomes			lowest inhibitory concentration	≥ 1 µM
CC(C)(C)C(=O)Nc1ccc2[nH]c(CN3CCC(N(CCC(=O)N4CCS(=O)(=O)CC4)C[C@H]4O[C@@H](n5cnc6c(N)ncnc65)[C@H](O)[C@@H]4O)CC3)nc2c1	human DOT1L R231Q	inhibitor, western blot, item: H3K79me2 over histone H3	H460 DOT1L R231Q	concentration not given	relative to: cpd over SGC0946	H3K79me2 level ratio	1.69

Molecule	target	assay	system	conditions	how to read	measurement	result
NCC(=O)O	system A amino acid transporter, mouse	Na+-dependent uptake, substrate	Ehrlich ascites cells	1 min, pH 7.4, together with: 107 mEq/L Na+		Km	4.1 mM
NCC(=O)COP(=O)(O)O	rhodopsin wild type-Rluc fusion	reporter gene	HEK293	24 h		EC50	4200 nM
O=C(NO)c1ccc(NC(=O)[C@@H](NS(=O)(=O)c2ccc3ccccc3c2)c2ccccc2)cc1	HDAC (HeLa nuclear extract)	enzyme activity, inhibitor				IC50	23.5 ± 1.7 nM
Cc1ccc(Cn2cnc3ccc(/C=C/C(=O)NO)cc3c2=O)cc1	histone deacetylase	enzyme activity, inhibitor	HeLa nuclear extract			IC50	360 ± 51 nM
COc1cc(C=O)cc(OC)c1O	UGT (rat)	4-MU glucuronidation, inhibitor	rat kidney microsomes			lowest inhibitory concentration	≥ 0.1 µM
O=c1ccn([C@@H]2O[C@H](COP(=O)(O)OP(=O)(O)OP(=O)(O)O)[C@@H](O)[C@H]2O)c(=O)[nH]1	P2Y2 receptor (human) RGE mutant	FAK phosphorylation, agonist	1321N1 transfected	5 min, 37 °C	relative to: RGE mutant over wild type	potency shift	~1000 fold
CCCCCCCCCCCCCCCC(=O)N[C@@H](CCCNC(=N)N)C(=O)N[C@@H](C)C(=O)N[C@@H](CC(C)C)C(=O)N[C@@H](CCC(N)=O)C(=O)N[C@@H](CCCCN)C(=O)N[C@@H](CCCNC(=N)N)C(=O)N[C@@H](CC(C)C)C(=O)N[C@@H](CCCNC(=N)N)C(=O)N[C@@H](CCC(=O)O)C(=O)N1CCC[C@H]1C(=O)N[C@@H](CCC(=O)O)C(=O)N[C@@H](CCCCN)C(=O)N[C@@H](CCC(N)=O)C(=O)N1CCC[C@H]1C(=O)N[C@@H](CCCCN)C(=O)N[C@@H](CC(C)C)C(=O)N[C@@H](CCC(N)=O)C(=O)N[C@@H](CCCNC(=N)N)C(=O)N[C@@H](C)C(=O)N[C@@H](CCC(N)=O)C(=O)N[C@@H](C)C(N)=O	PAR4 human	platelet aggregation	human platelets	3 to 10 µM, 2 min preincubation, together with: AYPGKF 160 µM		inhibition	inhibited
CC(C)(C)C(=O)Nc1ccc(NC(=O)N2CC3CC(N(CC(=O)NC4CC4)C[C@H]4O[C@@H](n5cnc6c(N)ncnc65)[C@H](O)[C@@H]4O)CC3C2)cc1 (some centres unmarked)	human DOT1L R231Q	inhibitor, western blot, item: H3K79me2 over histone H3	H460 DOT1L R231Q	concentration not given	relative to: cpd over SGC0946	H3K79me2 level ratio	1.22
EPEPRLWVVPGALPQV	GPR15 human	intracellular calcium, agonist, Fluo-4 fluorescence	peptide, CHO transfected with GPR15			concentration for maximal response	10 nM
CCN(CC)CCCN(C[C@H]1O[C@@H](n2cnc3c(N)ncnc32)[C@H](O)[C@@H]1O)C1CCN(Cc2nc3ccc(NC(=O)C(C)(C)C)cc3[nH]2)CC1	human DOT1L R231Q	inhibitor, western blot, item: H3K79me2 over histone H3	H460 DOT1L R231Q	concentration not given	relative to: cpd over SGC0946	H3K79me2 level ratio	1.67
CC(=O)c1c(O)cc(O)cc1O[C@@H]1O[C@H](CO)[C@@H](O)[C@H](O)[C@H]1O	NAD(P)H quinone oxidoreductase, mouse	enzyme induction, inducer	Hepa-1c1c7	concentration doubling activity		CD value	> 20 µM
CC(C)N(CCC1CC2CN(Cc3ccc(C#N)cc3)CC2C1)C[C@H]1O[C@@H](n2cnc3c(N)ncnc32)[C@H](O)[C@@H]1O (some centres unmarked)	human DOT1L R231Q	inhibitor, western blot, item: H3K79me2 over histone H3	H460 DOT1L R231Q	concentration not given	relative to: cpd over SGC0946	H3K79me2 level ratio	2.07
O=c1c(O[C@@H]2OC[C@@H](O)[C@H](O)[C@H]2O)c(-c2ccc(O)c(O)c2)oc2cc(O)cc(O)c12	NAD(P)H quinone oxidoreductase, mouse	enzyme induction, inducer	Hepa-1c1c7	concentration doubling activity		CD value	> 20 µM
MRYAW	cytochrome P450 Blt (Micromonospora sp. MW-13)	substrate, LC-MS	peptide	overnight, 30 °C, P450 0.5 µM, together with: NADH 2 mM		conversion to cyclic peptide	21%
CC1=C(/C=C/C(C)=C/C=C/C(C)=C/C(=O)O)C(C)(C)CCC1	thyroid hormone receptor, rat	reporter gene, agonist, luciferase reporter, qHTS	GH3.TRE-Luc			EC50	< 10000 nM
OC[C@H]1O[C@@H](Oc2cc3c(O)cc(O)cc3[o+]c2-c2ccc(O)c(O)c2)[C@H](O)[C@@H](O)[C@@H]1O	NAD(P)H quinone oxidoreductase, mouse	enzyme induction, inducer	Hepa-1c1c7	concentration doubling activity		CD value	> 20 µM
GRKKRRQRRRPPQGGVHPMKSRLRRT	AT1 receptor, human	phosphoinositide turnover, antagonist	peptide, HEK293, AT1 transfected	10 µM, 30 min, together with: angiotensin II 10 nM		inhibition	94%

Repeated from above:
Molecule	target	assay	system	conditions	how to read	measurement	result
CCCCCCCCCCCCCCCC(=O)N[C@@H](CCCNC(=N)N)C(=O)N[C@@H](C)C(=O)N[C@@H](CC(C)C)C(=O)N[C@@H](CCC(N)=O)C(=O)N[C@@H](CCCCN)C(=O)N[C@@H](CCCNC(=N)N)C(=O)N[C@@H](CC(C)C)C(=O)N[C@@H](CCCNC(=N)N)C(=O)N[C@@H](CCC(=O)O)C(=O)N1CCC[C@H]1C(=O)N[C@@H](CCC(=O)O)C(=O)N[C@@H](CCCCN)C(=O)N[C@@H](CCC(N)=O)C(=O)N1CCC[C@H]1C(=O)N[C@@H](CCCCN)C(=O)N[C@@H](CC(C)C)C(=O)N[C@@H](CCC(N)=O)C(=O)N[C@@H](CCCNC(=N)N)C(=O)N[C@@H](C)C(=O)N[C@@H](CCC(N)=O)C(=O)N[C@@H](C)C(N)=O	PAR4 human	platelet aggregation	human platelets	3 to 10 µM, 2 min preincubation, together with: AYPGKF 160 µM		inhibition	inhibited
CC(C)(C)C(=O)Nc1ccc(NC(=O)N2CC3CC(N(CC(=O)NC4CC4)C[C@H]4O[C@@H](n5cnc6c(N)ncnc65)[C@H](O)[C@@H]4O)CC3C2)cc1 (some centres unmarked)	human DOT1L R231Q	inhibitor, western blot, item: H3K79me2 over histone H3	H460 DOT1L R231Q	concentration not given	relative to: cpd over SGC0946	H3K79me2 level ratio	1.22
EPEPRLWVVPGALPQV	GPR15 human	intracellular calcium, agonist, Fluo-4 fluorescence	peptide, CHO transfected with GPR15			concentration for maximal response	10 nM
CCN(CC)CCCN(C[C@H]1O[C@@H](n2cnc3c(N)ncnc32)[C@H](O)[C@@H]1O)C1CCN(Cc2nc3ccc(NC(=O)C(C)(C)C)cc3[nH]2)CC1	human DOT1L R231Q	inhibitor, western blot, item: H3K79me2 over histone H3	H460 DOT1L R231Q	concentration not given	relative to: cpd over SGC0946	H3K79me2 level ratio	1.67
CC(=O)c1c(O)cc(O)cc1O[C@@H]1O[C@H](CO)[C@@H](O)[C@H](O)[C@H]1O	NAD(P)H quinone oxidoreductase, mouse	enzyme induction, inducer	Hepa-1c1c7	concentration doubling activity		CD value	> 20 µM
